Measurements of several laboratories.
Every numbered part comes from another study and shows a few of its results, in no order. Changes are numbered by the printed parent chain.

Set 1 — technique: protein-binding microarray; molecule type: double-stranded DNA, one strand shown; matrix: in vitro; tested at: 2200 nM top; notes: 60-bp whole probe; with: salmon DNA 0.4 mg/ml; baseline: random background probes; reading: higher = stronger binding; all sequences stand within: GCCTAGCAC … GTCTTGATTCGCTTGACGCTGCTG
Target: Interferon regulatory factor 7, full length, phosphomimetic (IRF7, Homo sapiens, UniProt Q92985, residues 1-503, S471D/S472D/S475D/S476D/S477D/S483D/S484D/S487D)
UniProt Q92985, sequence (whole entry, unmodified, looked up): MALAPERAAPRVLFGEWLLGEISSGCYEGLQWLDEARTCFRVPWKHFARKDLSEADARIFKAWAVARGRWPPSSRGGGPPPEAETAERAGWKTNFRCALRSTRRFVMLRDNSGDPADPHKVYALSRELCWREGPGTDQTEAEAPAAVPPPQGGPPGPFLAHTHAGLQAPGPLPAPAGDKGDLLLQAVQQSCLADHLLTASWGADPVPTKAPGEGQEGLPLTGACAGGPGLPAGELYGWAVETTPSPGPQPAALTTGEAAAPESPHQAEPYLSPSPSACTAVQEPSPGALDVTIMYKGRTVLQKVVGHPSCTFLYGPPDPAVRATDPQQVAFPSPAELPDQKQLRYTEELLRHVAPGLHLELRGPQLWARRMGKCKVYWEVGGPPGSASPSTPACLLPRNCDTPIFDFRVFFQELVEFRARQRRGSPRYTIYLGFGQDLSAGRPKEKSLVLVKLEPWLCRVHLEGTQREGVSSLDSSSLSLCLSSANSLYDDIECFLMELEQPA
`GACCATTTCGGGTATCGAGACGTGCTA` — result for “fitted relative affinity”: 2.13 z-score.
For `GAGGATCTCAGACTGGAGACGTGCTAG`, “fitted relative affinity” read -0.341 z-score.
`TTAAATTTCAGTATCGATTAGTGCTAG`: “fitted relative affinity” 0.936 z-score.
Under “fitted relative affinity”, `TTAGGTTTCTGGTTTCGGTTAGTGCTA` is recorded as 7.9 z-score.
`GACAGACTGGGACTGGGGACGTGCTAG`: “fitted relative affinity” -0.916 z-score.
`CTAGATCTCAGTCTCGATTAGTGCTAG` — result for “fitted relative affinity”: 0.742 z-score.
`GACCGTATCGACTTTCGGGACGTGCTA`: “fitted relative affinity” 3.2 z-score.
`AACGATTTCAGTATCGAGACGTGCTAG`: “fitted relative affinity” 0.698 z-score.
`GTCGGTATCGGTCTCGGGACGTGCTAG`: “fitted relative affinity” 0.691 z-score.
For `GACGATTTCGGGTAGCGAGACGTGCTA`, “fitted relative affinity” read 2.23 z-score.
`TTAGGTATCGGAATCGGTTAGTGCTAG`: “fitted relative affinity” 0.988 z-score.
For `GACGATATCGGGAATGGAGACGTGCTA`, “fitted relative affinity” read -0.253 z-score.
For `GACAAACTGAGTATCGAGACGTGCTAG`, “fitted relative affinity” read -0.253 z-score.
`TCACATATTCTCTTCTTACTGTGCTAG` — result for “fitted relative affinity”: 1.95 z-score.

Set 2 — target: CCND3, cyclin fold, Cln2 fusion (human); technique: yeast growth competition, sequencing; matrix: yeast; notes: strong parent motif; baseline: not given; reading: higher = stronger binding
Starting sequence: INSM1 docking peptide (human); PKAIRKLHFEDEV; partner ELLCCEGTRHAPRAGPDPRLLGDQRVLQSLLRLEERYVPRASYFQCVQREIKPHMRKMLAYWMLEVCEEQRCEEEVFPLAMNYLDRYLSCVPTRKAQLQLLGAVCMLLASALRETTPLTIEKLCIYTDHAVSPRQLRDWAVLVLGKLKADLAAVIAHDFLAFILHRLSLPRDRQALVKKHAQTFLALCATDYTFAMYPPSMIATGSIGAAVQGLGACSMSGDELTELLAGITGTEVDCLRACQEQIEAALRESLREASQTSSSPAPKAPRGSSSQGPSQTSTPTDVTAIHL
For `D11Q`, “normalised enrichment score” read 0.446.
Under “normalised enrichment score”, `K6D` is recorded as 0.106.
For `R5A`, “normalised enrichment score” read 0.0699.
`R5Q` — result for “normalised enrichment score”: 0.35.
`A3R` — result for “normalised enrichment score”: 0.267.
`H8T` — result for “normalised enrichment score”: 1.67.
`D11S` — result for “normalised enrichment score”: 0.466.
`R5I` — result for “normalised enrichment score”: 0.00777.
Under “normalised enrichment score”, `A3E` is recorded as 0.323.
Under “normalised enrichment score”, `K6W` is recorded as 0.686.
`K2W` — result for “normalised enrichment score”: 0.405.
Under “normalised enrichment score”, `D11T` is recorded as -0.105.
`D11M`: “normalised enrichment score” 0.31.
Under “normalised enrichment score”, `L7V` is recorded as 0.613.
For `E10S`, “normalised enrichment score” read 0.998.
For `K6A`, “normalised enrichment score” read 1.42.
Under “normalised enrichment score”, `K2A` is recorded as 0.669.
`E12Q`: “normalised enrichment score” 0.555.
For `K2T`, “normalised enrichment score” read 1.73.
`D11R`: “normalised enrichment score” 0.0939.
`L7N` — result for “normalised enrichment score”: 0.177.
For `F9C`, “normalised enrichment score” read 0.121.
`E12W` — result for “normalised enrichment score”: 0.51.
`K6P`: “normalised enrichment score” -0.248.
`K2M`: “normalised enrichment score” 0.761.

Set 3 — technique: protein binding microarray; molecule type: double-stranded DNA, one strand shown; matrix: in vitro; tested at: not given; baseline: not given; reading: higher = stronger binding
Target: Histone acetyltransferase KAT6A, winged helix 2, GST fusion (KAT6A, Homo sapiens, UniProt Q92794, residues 85-181)
Notes: 8-mer, flanks averaged, mean of 2 arrays, mostly near background
Residues (chain): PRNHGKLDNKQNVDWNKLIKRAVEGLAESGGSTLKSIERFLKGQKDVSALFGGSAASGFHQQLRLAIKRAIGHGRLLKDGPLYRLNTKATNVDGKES
The E-score of `CCAACCGG` is reported as 0.0935.
`ACCCTGCT` has an E-score of -0.0667.
`AGGCGATC` gave an E-score of -0.0632.
The E-score of `CCACAGTA` is reported as -0.0447.
With `GTTATAGA` the E-score was -0.00429.
`CGTTATAG` has an E-score of -0.14.
`CCGCGTTC` has an E-score of 0.154.
For `GCGCCGCA`, the E-score was 0.113.
`GGAGCTCA` has an E-score of -0.0451.
`AATTTGAT` gave an E-score of 0.0404.
`GAGCGTCA` has an E-score of -0.0214.
With `AAATTGGC` the E-score was -0.165.
The E-score of `TAGGATGA` is reported as -0.0268.
With `AGCACTTG` the E-score was -0.196.
`CTGGAGAA` gave an E-score of -0.0764.
For `AATAAATC`, the E-score was -0.0183.
The E-score of `GGATGCCC` is reported as -0.0101.
`GCGGTCTA` gave an E-score of 0.156.
`CGCTTGGA` gave an E-score of 0.0787.

Further values, each from its own experiment
The fold induction of `PhoQ, residues 284 288 289 292 302 303 SCCLKL` is reported as 0.779 (PhoP, residues 12 14 15 18 19 NHTVL (Escherichia coli, UniProt P23836); Sort-seq, item: YFP reporter; E. coli; PhoQ-PhoP variant library, with: 10 µM Mg2+; baseline: high Mg2+ state, higher = stronger signaling).
